Measured values gathered from unrelated publications.
Numbered parts are unrelated; each lists some results of a single study. Several values in a cell are separate wells, animals, samples, runs or records. Converted amounts (≈) assume the structure as drawn.
Chain of UniProt P35372 (whole entry, looked up): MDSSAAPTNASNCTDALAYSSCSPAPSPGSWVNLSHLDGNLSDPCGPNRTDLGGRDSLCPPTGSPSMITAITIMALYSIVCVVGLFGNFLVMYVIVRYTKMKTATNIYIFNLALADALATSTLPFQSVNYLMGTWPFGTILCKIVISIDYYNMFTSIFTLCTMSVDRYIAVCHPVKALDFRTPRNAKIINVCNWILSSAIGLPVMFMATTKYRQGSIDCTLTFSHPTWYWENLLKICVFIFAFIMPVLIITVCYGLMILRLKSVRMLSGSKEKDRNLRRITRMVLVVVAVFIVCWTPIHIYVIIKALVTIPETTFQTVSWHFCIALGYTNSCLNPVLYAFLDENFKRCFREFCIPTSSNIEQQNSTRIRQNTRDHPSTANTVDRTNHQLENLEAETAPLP
Chain of UniProt P08684 (whole entry, looked up): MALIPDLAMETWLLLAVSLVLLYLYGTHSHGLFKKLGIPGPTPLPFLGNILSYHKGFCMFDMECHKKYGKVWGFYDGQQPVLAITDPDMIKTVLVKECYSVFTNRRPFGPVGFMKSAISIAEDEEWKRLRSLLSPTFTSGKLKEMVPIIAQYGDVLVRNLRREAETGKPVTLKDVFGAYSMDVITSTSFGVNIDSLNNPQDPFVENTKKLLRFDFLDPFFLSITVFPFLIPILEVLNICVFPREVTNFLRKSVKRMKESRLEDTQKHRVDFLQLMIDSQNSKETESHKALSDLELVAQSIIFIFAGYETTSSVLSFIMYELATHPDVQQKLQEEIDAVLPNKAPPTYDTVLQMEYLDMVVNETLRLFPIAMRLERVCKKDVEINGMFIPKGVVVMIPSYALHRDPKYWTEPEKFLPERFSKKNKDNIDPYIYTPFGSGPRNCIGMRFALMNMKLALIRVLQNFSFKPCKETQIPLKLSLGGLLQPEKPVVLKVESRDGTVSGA

Sample 1
Structure (SMILES): Cn1cc(-c2cccc(CN3CCC4(CC3)COc3c4ccc4c3CN([C@H]3CCC(=O)NC3=O)C4=O)c2)cn1
Action: inhibitor
Measurement: IC50
KCNH2: Voltage-gated inwardly rectifying potassium channel KCNH2 (KCNH2, Homo sapiens, UniProt Q12809)
Chain of UniProt Q12809 (whole entry, looked up): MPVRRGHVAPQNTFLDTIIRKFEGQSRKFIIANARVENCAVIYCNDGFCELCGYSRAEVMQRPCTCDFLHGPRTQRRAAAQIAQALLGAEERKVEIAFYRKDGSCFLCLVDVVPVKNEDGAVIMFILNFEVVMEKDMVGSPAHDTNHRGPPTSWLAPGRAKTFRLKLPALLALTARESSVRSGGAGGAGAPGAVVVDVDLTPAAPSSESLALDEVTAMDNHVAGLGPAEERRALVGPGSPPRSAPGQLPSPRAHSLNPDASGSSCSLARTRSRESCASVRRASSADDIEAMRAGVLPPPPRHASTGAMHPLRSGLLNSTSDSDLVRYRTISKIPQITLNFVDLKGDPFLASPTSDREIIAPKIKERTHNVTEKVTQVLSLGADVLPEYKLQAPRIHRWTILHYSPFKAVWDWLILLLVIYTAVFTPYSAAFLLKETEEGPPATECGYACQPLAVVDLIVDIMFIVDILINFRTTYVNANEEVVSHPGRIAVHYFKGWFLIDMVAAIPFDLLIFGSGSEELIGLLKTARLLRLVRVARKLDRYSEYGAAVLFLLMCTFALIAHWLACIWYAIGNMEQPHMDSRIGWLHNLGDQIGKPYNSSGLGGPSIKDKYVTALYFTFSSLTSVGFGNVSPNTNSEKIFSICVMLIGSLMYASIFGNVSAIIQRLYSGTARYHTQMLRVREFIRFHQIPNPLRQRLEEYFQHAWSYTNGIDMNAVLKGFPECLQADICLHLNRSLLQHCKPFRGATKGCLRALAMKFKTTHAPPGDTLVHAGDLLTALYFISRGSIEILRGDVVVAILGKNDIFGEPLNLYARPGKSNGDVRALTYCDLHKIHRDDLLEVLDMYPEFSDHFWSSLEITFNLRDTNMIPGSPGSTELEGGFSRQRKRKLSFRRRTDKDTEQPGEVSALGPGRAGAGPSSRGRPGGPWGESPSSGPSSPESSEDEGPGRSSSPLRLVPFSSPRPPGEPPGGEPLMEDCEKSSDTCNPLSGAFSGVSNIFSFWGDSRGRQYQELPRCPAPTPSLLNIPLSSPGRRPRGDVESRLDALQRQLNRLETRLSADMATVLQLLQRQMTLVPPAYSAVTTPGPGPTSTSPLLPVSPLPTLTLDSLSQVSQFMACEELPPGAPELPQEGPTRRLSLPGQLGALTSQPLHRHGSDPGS
target = KCNH2; assay = potassium current, manual patch clamp; conditions = nominal concentrations; value = 30.8 µM
target = Cytochrome P450 3A4 (CYP3A4, Homo sapiens, UniProt P08684); assay = enzyme activity; conditions = midazolam probe; value = > 10 µM
target = KCNH2; assay = potassium current, manual patch clamp; conditions = measured concentrations; value = 47.5 µM

Mixed results
SMILES = N=C(N)NCCCCCCN1CCC23c4c5ccc(O)c4OC2c2nc4ccccc4cc2CC3(O)C1C5 (stereo not drawn); target or system = OPRM1 (Homo sapiens, UniProt P35372); assay = competitor, radioligand binding; conditions = 1 pM; measurement = specific binding; value = 102% and 125% and 124%
SMILES = CCCCC[C@@H]1CC(=O)N[C@@H](C(C)C)C(=O)N[C@H](CCC(=O)O)C(=O)N[C@@H](CCCNC(=N)N)C(=O)NCC(=O)N2CCC[C@H]2C(=O)N[C@@H](CC(C)C)C(=O)N[C@H](CCC(N)=O)C(=O)N[C@@H](CCC(=O)O)C(=O)N[C@H](Cc2ccc(O)cc2)C(=O)N[C@H](Cc2c[nH]c3ccccc23)C(=O)NCCCC(=O)O1; target or system = Staphylococcus aureus; system = USA300; conditions = added: ubiquinone 4 µg/mL; measurement = MIC; value = 4 µg/mL (≈ 2.69 µM)
SMILES = Cc1c(NC(=O)c2cccn(-c3ccc(F)cc3)c2=O)ccc(Oc2ccnc(NC(=O)C3CC3)c2)c1C; target or system = L929; assay = necroptosis protection, CCK-8; conditions = 5 µM, added: TNF-α-induced; measurement = viability; value = 78.2%
